Experimental data pooled from the literature.
Each line is one published result; not all experiments were run side by side. Numbers after ± are the reported error.

NC(=O)N/N=C/c1ccc(OCc2ccccc2)cc1 — result for “catalase activity (OD450)”: 0.108 a.u. (IMR-32; 50 µg/mL, 24 h; higher = more activity).
CC(C)(C)C(=O)OCOP(=O)(OCOC(=O)C(C)(C)C)C1CCCN(O)C1=O (stereo not shown) gave a log GI50 of -6.31 log M (SW-620).
CSCC[C@H](NC(=O)[C@@H](NC(=O)[C@H](CCC(N)=O)NC(=O)[C@H](CO)NC(=O)[C@@H](N)C(C)C)[C@@H](C)O)C(=O)N[C@@H](CCCNC(=N)N)C(=O)N[C@@H](CCC(N)=O)C(=O)N[C@H](C(=O)N[C@@H](C)C(=O)N[C@H](C(=O)N1CCC[C@H]1C(=O)N[C@@H](CC(C)C)C(=O)N[C@@H](CC(C)C)C(=O)N[C@@H](Cc1c[nH]c2ccccc12)C(=O)N[C@@H](Cc1ccccc1)C(=O)N[C@@H](Cc1c[nH]c2ccccc12)C(=O)N[C@H](C(=O)NCC(=O)N[C@@H](CO)C(=O)N[C@@H](CC(C)C)C(=O)NCCOCCOCCOCCOCCOCCOCCOCCOCCOCCOCCOCCOCCC(=O)N[C@@H](CS)C(N)=O)[C@@H](C)O)C(C)C)[C@@H](C)O has a selectivity ratio of 13 ± 6.9 (HCC2279 lung adenocarcinoma; cell binding, phage binding, item: output/input phage; 10 min, 37 °C; baseline: control phage).
With O=C(C[Se]C(=O)c1ccccc1Nc1ccccc1)Nc1cccc(C(F)(F)F)c1 the CC50 was 18.2 µM (NCI60 colon subpanel; NCI60 five-dose screen).
For O=C1C(Cl)=C(Cl)C(=O)c2ccccc21, the selectivity index was 1.04 (HepG2; MTT; baseline: IC50 MRC-5 over IC50 HepG2).
O=C(C[Se]C(=O)c1ccco1)Nc1cccc(C(F)(F)F)c1: “mean growth percent” -44.2% (NCI60 CNS subpanel; cell growth; 10 µM, 48 h, one-dose).
For [2H]C([2H])([18F])[C@]([2H])(N)C(=O)O, “inhibition of cellular uptake” read 88% (U-87 MG; concentration not given, with: L-alanine 5 mM).
CC(=O)NCSC[C@H](NC(=O)[C@@H]1CCCN1C(=O)[C@H](C)NC(=O)[C@@H](NC(=O)CNC(=O)[C@@H](NC(=O)[C@H](Cc1c[nH]c2ccccc12)NC(=O)[C@H](C)NC(=O)CNC(=O)[C@H](CO)NC(=O)[C@H](C)NC(=O)[C@@H]1CCCN1C(=O)[C@H](Cc1c[nH]c2ccccc12)NC(=O)[C@H](C)NC(=O)[C@H](C)NC(=O)[C@@H](N)Cc1ccc(O)cc1)[C@@H](C)O)[C@@H](C)O)C(=O)N[C@@H](CO)C(=O)N[C@@H](C)C(=O)NCC(=O)N[C@H](C(=O)NCCOCCOCCOCCOCCOCCOCCOCCOCCOCCOCCOCCOCCC(=O)N[C@@H](CS)C(N)=O)[C@@H](C)O has a selectivity ratio of 16 ± 6.1 (MDA-MB-231 breast cancer; cell binding, phage binding, item: output/input phage; 10 min, 37 °C; baseline: control phage).
COc1ccccc1-c1ccncc1C(=O)Nc1nnc(OCc2ccc(Cl)cc2)s1 gave a colony survival of 99.3% (HCT-116 BRCA2 wild-type; 0.06 µM; baseline: untreated).
CC1OC2OC3C4=C(OC3(C)C12O)C(=O)c1c(O)cccc1C4=O (stereo not shown) has a growth percent of -85.5% (HOP-62; SRB; 10 µg/mL, 48 h; negative values mean cell killing).

A few entries again:
For O=C1C(Cl)=C(Cl)C(=O)c2ccccc21, the selectivity index was 1.04 (HepG2; MTT; baseline: IC50 MRC-5 over IC50 HepG2).
O=C(C[Se]C(=O)c1ccco1)Nc1cccc(C(F)(F)F)c1: “mean growth percent” -44.2% (NCI60 CNS subpanel; cell growth; 10 µM, 48 h, one-dose).
